Measurements gathered from unrelated publications.
A part holds a random share of what one study measured. Substitutions count along the parent as printed.

Series 1 — technique: DHFR PCA, deep sequencing; matrix: yeast; with: (+)-ABA 200 µM; baseline: wild-type fitted maximum; reading: higher = stronger binding
Target: ABI1, truncated, D143A, DHFR fusion (Arabidopsis thaliana)
Notes: methotrexate growth selection, single substitutions
Parent: PYL1, truncated, DHFR fusion (Arabidopsis thaliana); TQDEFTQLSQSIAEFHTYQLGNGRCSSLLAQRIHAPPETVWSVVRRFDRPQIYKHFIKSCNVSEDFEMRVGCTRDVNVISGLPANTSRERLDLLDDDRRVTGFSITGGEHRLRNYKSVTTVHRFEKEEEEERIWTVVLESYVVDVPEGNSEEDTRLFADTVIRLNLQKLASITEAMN; partner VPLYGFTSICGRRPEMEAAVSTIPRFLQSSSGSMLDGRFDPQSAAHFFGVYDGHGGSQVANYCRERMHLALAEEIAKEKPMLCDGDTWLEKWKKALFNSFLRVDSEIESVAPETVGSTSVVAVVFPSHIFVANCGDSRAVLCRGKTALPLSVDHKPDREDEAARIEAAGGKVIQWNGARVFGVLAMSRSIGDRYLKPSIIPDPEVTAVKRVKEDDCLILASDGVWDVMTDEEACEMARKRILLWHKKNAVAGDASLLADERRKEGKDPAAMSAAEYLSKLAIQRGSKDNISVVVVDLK
Change | relative binding score [%]
L91D | 10.5
R46V | 71
P83H | 33
C72L | 91.2
S80W | 54.5
T1R | 95.5
D153G | 30.4
A170G | 88.4
P146W | 19.6
T1H | 103
Q10F | 89.7
S9M | 85.6
A30Q | 98.7

Series 2 — technique: RNAcompete; form: RNA; matrix: in vitro; tested at: 20 nM; notes: 7-mer, probes averaged, single round; baseline: mean of 7-mers; reading: higher = stronger binding
Target: PABPC1L2, full length, GST fusion (mouse, UniProt A0ABA7IW68)
Construct (chain): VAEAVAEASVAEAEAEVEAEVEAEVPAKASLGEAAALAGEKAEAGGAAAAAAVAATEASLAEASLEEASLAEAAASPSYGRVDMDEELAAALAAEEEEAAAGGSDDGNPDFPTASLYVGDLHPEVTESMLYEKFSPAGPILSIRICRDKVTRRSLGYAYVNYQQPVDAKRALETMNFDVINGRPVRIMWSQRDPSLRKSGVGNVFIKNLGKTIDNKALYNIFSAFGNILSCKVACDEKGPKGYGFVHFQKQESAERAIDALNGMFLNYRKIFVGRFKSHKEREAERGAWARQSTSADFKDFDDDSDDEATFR
Oligonucleotide | 7-mer Z-score
CAUGUUA | -0.224
GAACGCC | -0.244
GGUCAGG | 0.0805
AACACGU | 0.311
CUUCACC | -0.306
UUUGAGC | -0.298
UGGACCU | -0.15
GAGGUAG | -0.0591
AAGCGAG | 0.271
CACGGCG | 0.0497
ACCUGUU | -0.458

Series 3 — technique: protein binding microarray; form: double-stranded DNA, one strand shown; matrix: in vitro; tested at: not given; baseline: not given; reading: higher = stronger binding
Target: Histone acetyltransferase KAT6A, both winged helices, GST fusion (KAT6A, Homo sapiens, UniProt Q92794, residues 1-181)
Notes: 8-mer, flanks averaged, mean of 2 arrays, mostly near background
Target sequence (chain): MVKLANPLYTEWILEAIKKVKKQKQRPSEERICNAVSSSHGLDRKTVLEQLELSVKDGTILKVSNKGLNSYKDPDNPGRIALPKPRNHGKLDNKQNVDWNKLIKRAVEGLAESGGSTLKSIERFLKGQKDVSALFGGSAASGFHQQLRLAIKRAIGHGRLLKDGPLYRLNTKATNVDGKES
Oligonucleotide | E-score
AATACTCC | -0.124
AACTGCAG | -0.0993
GACCTGCC | -0.0979
AATTGCCC | -0.0725
ACGTATCT | -0.0152
GCATTGGA | 0.0701
ACCTGTGC | -0.0689
CATTCGGA | 0.0738
GAATATGC | 0.0578
CGCTTACC | 0.244
CAGCGCAA | 0.188
CCAATAAA | -0.00173
CGGATGCC | 0.0682
GTCGGCTA | 0.193

Series 4 — technique: aptamer microarray, sandwich; form: DNA with 2'F-ANA; matrix: in vitro; tested at: 200 nM; with: Cy3 exosite-II aptamer, 400 nM; reading: higher = stronger binding; oligonucleotide: GGTTGGTGTGGTTGG
Target: Prothrombin, mature alpha-thrombin (F2, Homo sapiens, UniProt P00734)
Notes: whole 15-mer aptamer, many near background
Modification | mean fluorescence intensity
2'F-ANA at 1 2 4 5 6 8 10 11 12 14 | 46.5 a.u.
2'F-ANA at 3 4 6 8 12 15 | 1010 a.u.
2'F-ANA at 1 2 5 8 9 11 12 13 15 | 67.5 a.u.
2'F-ANA at 2 4 5 6 9 10 12 15 | 51 a.u.
2'F-ANA at 1 4 6 8 10 11 13 15 | 55.1 a.u.
2'F-ANA at 4 5 7 11 12 13 14 | 47.5 a.u.
2'F-ANA at 1 5 10 13 | 46.5 a.u.
2'F-ANA at 2 8 10 13 15 | 110 a.u.
2'F-ANA at 1 2 6 10 11 13 14 | 105 a.u.

Some of these lines once more (series 3):
Oligonucleotide | E-score
GCATTGGA | 0.0701
ACCTGTGC | -0.0689
